Measurements collected from several papers.
Compare with care: the assays were run in different laboratories. Several values in a cell are separate wells, animals, samples, runs or records.
HTR5A: 5-hydroxytryptamine receptor 5A (HTR5A, Homo sapiens, UniProt P47898)
UniProt Q63959, sequence (whole entry, looked up): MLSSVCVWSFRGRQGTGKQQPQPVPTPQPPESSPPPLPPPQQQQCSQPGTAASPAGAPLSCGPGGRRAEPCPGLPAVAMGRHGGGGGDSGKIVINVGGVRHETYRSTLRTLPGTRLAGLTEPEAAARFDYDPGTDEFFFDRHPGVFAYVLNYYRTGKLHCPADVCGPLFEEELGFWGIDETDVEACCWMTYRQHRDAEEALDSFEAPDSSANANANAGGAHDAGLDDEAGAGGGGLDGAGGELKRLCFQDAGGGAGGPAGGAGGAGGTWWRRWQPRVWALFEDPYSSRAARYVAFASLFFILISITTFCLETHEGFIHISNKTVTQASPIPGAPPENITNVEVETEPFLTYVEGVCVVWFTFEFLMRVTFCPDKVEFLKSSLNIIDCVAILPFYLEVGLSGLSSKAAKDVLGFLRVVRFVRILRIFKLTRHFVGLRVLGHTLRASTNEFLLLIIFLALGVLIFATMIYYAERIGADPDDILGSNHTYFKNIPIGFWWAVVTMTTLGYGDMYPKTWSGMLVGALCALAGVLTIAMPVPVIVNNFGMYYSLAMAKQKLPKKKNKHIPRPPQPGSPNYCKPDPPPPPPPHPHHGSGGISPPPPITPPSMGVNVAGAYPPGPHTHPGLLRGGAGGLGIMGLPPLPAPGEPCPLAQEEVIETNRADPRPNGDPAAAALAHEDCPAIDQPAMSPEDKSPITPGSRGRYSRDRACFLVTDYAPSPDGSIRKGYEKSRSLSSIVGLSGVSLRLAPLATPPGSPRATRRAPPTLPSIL
UniProt P47898, sequence (whole entry, looked up): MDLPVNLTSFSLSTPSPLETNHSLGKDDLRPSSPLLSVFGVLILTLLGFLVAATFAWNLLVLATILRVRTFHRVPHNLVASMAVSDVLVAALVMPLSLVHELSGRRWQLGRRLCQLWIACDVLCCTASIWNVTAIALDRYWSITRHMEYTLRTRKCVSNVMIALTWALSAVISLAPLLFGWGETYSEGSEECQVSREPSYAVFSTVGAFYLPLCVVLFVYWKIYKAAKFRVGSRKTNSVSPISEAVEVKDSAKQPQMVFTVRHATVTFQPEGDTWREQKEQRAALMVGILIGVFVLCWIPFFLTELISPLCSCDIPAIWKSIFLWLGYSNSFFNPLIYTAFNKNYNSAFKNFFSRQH
UniProt Q96S37, sequence (whole entry, looked up): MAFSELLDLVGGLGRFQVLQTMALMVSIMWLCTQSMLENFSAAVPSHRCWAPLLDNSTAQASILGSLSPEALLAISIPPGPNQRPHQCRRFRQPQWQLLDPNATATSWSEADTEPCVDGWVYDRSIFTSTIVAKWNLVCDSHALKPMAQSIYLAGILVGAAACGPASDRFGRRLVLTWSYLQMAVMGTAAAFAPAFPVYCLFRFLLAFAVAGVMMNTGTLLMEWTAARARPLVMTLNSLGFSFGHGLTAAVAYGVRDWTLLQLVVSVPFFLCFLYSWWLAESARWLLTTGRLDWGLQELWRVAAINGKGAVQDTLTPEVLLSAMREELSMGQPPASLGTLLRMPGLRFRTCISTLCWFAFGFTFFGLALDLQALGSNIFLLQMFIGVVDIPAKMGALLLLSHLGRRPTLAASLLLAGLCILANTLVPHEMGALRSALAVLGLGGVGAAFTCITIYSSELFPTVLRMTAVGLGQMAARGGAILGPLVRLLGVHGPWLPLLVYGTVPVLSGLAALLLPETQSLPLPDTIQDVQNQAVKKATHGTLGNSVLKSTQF
UniProt Q13523, sequence (whole entry, looked up): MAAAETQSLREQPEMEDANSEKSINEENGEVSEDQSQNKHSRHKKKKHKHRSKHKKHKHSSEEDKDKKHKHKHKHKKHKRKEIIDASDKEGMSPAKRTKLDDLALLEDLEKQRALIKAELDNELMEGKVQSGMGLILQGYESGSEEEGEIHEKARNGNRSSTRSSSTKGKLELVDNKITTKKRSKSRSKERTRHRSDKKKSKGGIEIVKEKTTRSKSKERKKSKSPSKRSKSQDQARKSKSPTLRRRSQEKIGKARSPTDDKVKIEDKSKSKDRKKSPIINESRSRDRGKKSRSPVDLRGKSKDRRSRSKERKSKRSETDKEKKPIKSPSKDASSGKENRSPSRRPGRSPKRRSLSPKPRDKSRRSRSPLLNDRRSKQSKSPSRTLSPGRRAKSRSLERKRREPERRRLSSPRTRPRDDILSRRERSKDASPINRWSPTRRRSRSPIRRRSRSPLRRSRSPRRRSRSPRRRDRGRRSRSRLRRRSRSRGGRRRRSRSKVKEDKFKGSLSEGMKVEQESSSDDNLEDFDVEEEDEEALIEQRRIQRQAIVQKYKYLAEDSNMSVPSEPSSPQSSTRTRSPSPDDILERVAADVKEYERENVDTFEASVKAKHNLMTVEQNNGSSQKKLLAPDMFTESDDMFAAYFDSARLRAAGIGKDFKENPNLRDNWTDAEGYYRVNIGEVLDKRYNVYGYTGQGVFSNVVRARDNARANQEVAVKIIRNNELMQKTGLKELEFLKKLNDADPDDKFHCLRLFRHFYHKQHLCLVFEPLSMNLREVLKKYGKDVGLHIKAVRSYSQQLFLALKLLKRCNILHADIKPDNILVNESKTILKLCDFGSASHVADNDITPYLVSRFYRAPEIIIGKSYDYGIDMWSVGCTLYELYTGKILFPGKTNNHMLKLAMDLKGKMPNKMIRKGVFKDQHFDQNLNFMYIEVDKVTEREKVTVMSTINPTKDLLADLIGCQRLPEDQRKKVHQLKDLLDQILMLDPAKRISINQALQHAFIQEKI
UniProt P35348, sequence (whole entry, looked up): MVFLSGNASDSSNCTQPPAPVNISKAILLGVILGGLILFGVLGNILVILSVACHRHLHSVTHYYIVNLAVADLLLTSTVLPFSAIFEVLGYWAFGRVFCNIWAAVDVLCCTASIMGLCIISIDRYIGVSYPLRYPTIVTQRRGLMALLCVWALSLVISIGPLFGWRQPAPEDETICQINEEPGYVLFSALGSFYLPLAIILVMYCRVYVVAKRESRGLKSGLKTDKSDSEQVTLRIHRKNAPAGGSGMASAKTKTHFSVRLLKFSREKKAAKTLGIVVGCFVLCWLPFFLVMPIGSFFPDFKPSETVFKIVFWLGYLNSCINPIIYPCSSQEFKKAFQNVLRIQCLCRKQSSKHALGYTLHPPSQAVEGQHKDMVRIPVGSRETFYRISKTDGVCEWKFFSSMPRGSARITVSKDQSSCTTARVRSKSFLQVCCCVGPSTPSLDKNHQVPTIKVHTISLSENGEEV

O=C(Nc1cccc2c(=O)cc(-c3nnn[nH]3)oc12)c1ccc(OCCCCc2ccccc2)cc1 — inhibition (Volume-regulated anion channel subunit LRRC8C, part LRRC8A IL1 chimera (LRRC8C, Homo sapiens, UniProt Q8TDW0, Y126F); ion current, inhibitor, whole-cell patch clamp; HCT LRRC8-/- cells; 3 µM, -100 mV): 79.8% and 75.7% and 69.8% and 85.7%
COc1ccccc1N1CCN(CCCCN2CCc3ccccc3C2=O)CC1 — inhibition (HTR5A; radioligand binding; concentration not given, added: [3H]LSD): 72%
NC/C(=C\F)COc1cccc(Cn2c(=S)[nH]c(=O)c3[nH]cnc32)c1 — inhibition (SCN5A (Homo sapiens, UniProt Q14524); peak sodium current, inhibitor, automated patch clamp; 100 µM, pulse 9, single recording): 25.5%
CCc1oc2ccccc2c1C(=O)c1cc(Br)c(O)c(Br)c1 — inhibition (SLC22A12 (Homo sapiens, UniProt Q96S37); urate uptake; HEK-293T; 0.5 µM, 10 min, 37 °C, added: [14C]urate 200 µM): 68.8% and 68.2% and 66.9% and 60.5% and 70.3% and 65.3% and 66.7%
Clc1cncc(OC[C@@H]2CN(CCN3CCc4ccccc43)CCO2)c1 — inhibition (HTR5A; radioligand binding; concentration not given, added: [3H]LSD): 16.1%
Cc1cc2c(cc1N1C(=O)c3cccc4c(CCCO)ccc(c34)C1=O)n(C)c(=O)n2C (racemic) — inhibition (Bromodomain-containing protein 2, BD1 (BRD2, Homo sapiens, UniProt P25440); binding, BROMOscan binding; 1000 nM): 15%
Clc1cccc(OC[C@H]2CN(CCN3CCc4ccccc43)CCO2)c1 — inhibition (HTR5A; radioligand binding; concentration not given, added: [3H]LSD): 6.1%
Cc1ccc(C(=O)Nc2ccc3ccccc3c2)o1 — inhibition (Voltage-gated potassium channel KCNC3 (Kcnc3, Mus musculus, UniProt Q63959); ion current, inhibitor, whole-cell patch clamp; 10 µM): 0% and 1.87% and 9.42% and 5.13%
CC[C@@H]1[C@H](F)C(=O)N[C@@H]1COc1nccc2cc(C(N)=O)c(OC)cc12 — inhibition (PRPF4B (Homo sapiens, UniProt Q13523); ATP-site probe binding, inhibitor, ActivX ATP probe profiling; THP-1 cell lysate; 0.04 mM, other probe site): 16%
O=C(NO)c1ccc(CN2CCCCc3ccccc32)c(F)c1 — inhibition (ADRA1A (Homo sapiens, UniProt P35348); radioligand binding, radioligand displacement; 10 µM, mean of replicates): 19.7%

Repeated from above:
O=C(Nc1cccc2c(=O)cc(-c3nnn[nH]3)oc12)c1ccc(OCCCCc2ccccc2)cc1 — inhibition (Volume-regulated anion channel subunit LRRC8C, part LRRC8A IL1 chimera (LRRC8C, Homo sapiens, UniProt Q8TDW0, Y126F); ion current, inhibitor, whole-cell patch clamp; HCT LRRC8-/- cells; 3 µM, -100 mV): 79.8% and 75.7% and 69.8% and 85.7%
